Results gathered from unrelated publications.
Lines come from different studies, so protocols differ. Values joined by “and” are separate records of one study, mostly repeats; a detail may differ. ± gives the spread as reported.
Luciferin 4-monooxygenase: Luciferin 4-monooxygenase (Photinus pyralis, UniProt P08659)
DRD1: D(1A) dopamine receptor (DRD1, Homo sapiens, UniProt P21728)
MMP2: 72 kDa type IV collagenase (MMP2, Homo sapiens, UniProt P08253)
HTR1E: 5-hydroxytryptamine receptor 1E (HTR1E, Homo sapiens, UniProt P28566)
Palmitoyl-protein thioesterase 1: Palmitoyl-protein thioesterase 1 (Homo sapiens, UniProt P50897)
Adhesin FmlH lectin domain: Adhesin FmlH, lectin domain (Escherichia coli, UniProt Q1RBS0)
Scn2a: Sodium channel protein type 2 subunit alpha (Scn2a, Rattus norvegicus, UniProt P04775)

Structure (SMILES) | target | assay | system | setting | scale | inhibition
Cn1cc(-c2cnc3ccc(NC(=O)Nc4ccc(F)c(Br)c4)cc3n2)cn1 | Inhibitor of nuclear factor kappa-B kinase subunit alpha (CHUK, Homo sapiens, UniProt O15111) | kinase binding, KiNativ profiling, item: Lys2 peptide | PANC-1 lysate | 1.25 µM | – | 1.3%
CCCC1=NN(c2nc3ccccc3s2)C(=O)/C1=C(\C)Nc1ccccc1CC | Luciferin 4-monooxygenase | luciferase luminescence, inhibitor | cell-free | 50 µM, counter-screen | – | 6.99%
O=C1c2ccccc2CCCN1CCCCN1CCN(c2ccccn2)CC1 | DRD1 | radioligand binding | – | concentration not given, with: [3H]SCH23390 | – | 74.4%
CCNNC(=O)c1ccc(CN(CC(=O)NCc2ccccc2)C(=O)c2ccc(N(C)C)cc2)cc1 | MMP2 | enzyme activity | – | 10 µM | – | no inhibition
Cc1cc(NS(=O)(=O)c2ccc(N=NN(C)O)cc2)no1 | α-glucosidase, rat intestine | enzyme activity | – | 20 µg/mL, with: 4-nitrophenyl α-D-glucopyranoside | – | 12.5 ± 1.38%
NC/C(=C\F)COc1cccc(Cn2c(=S)[nH]c(=O)c3[nH]cnc32)c1 | Myeloperoxidase (MPO, Homo sapiens, UniProt P05164) | enzyme activity | – | 15 µM | – | 99.7% and 100% and 99.8% and 99.5%
CCN(O)N=Nc1ccc(S(=O)(=O)Nc2onc(C)c2C)cc1 | α-glucosidase, rat intestine | enzyme activity | – | 120 µg/mL, with: 4-nitrophenyl α-D-glucopyranoside | – | 26.2 ± 0.09%
Clc1cncc(OC[C@H]2CN(CCN3CCc4ccccc43)CCO2)c1 | HTR1E | radioligand binding | – | concentration not given, with: [3H]5-HT | – | -12.3%
Cc1nc(C2CCN(C(=O)c3cccc(-c4ncn[nH]4)c3)CC2)cc(=O)[nH]1 | Luciferin 4-monooxygenase | luciferase luminescence, inhibitor | cell-free | 50 µM, counter-screen | – | 7.46%
CCCN(O)N=Nc1ccc(S(=O)(=O)Nc2nccs2)cc1 | α-glucosidase, rat intestine | enzyme activity | – | 120 µg/mL, with: 4-nitrophenyl α-D-glucopyranoside | – | 30 ± 0.16%
Cc1ccc(S(=O)(=O)Nc2ccc(F)cc2NS(=O)(=O)c2ccc(C)cc2)cc1 | Protein lin-28 homolog A (Mus musculus, UniProt Q8K3Y3) | RNA binding, inhibitor, EMSA | – | concentration not given | – | inhibited
CCCCC(CC)COC(=O)C(C#N)=C(c1ccccc1)c1ccccc1 (stereo not shown) | Palmitoyl-protein thioesterase 1 | Spectrum Collection screen | – | concentration not given, with: substrate 20 µM | – | 65.9%
CC(=O)N[C@@H]1[C@@H](O[C@@H]2O[C@H](CO)[C@H](O)[C@H](O)[C@H]2O)[C@@H](O)[C@@H](CO)O[C@@H]1O | Adhesin FmlH lectin domain | binding to desialylated mucin, ELISA competition | UPEC UTI89 | 100 µM | – | 15.5 ± 6.7%
CCCCCCCCCCCCCCCC(=O)O[C@@H]1[C@@H](O)[C@@H](O)[C@@H]([C@H](NC(=O)[C@@H]2C[C@@H](CCC)CN2C)[C@H](C)Cl)O[C@@H]1SC.Cl | Palmitoyl-protein thioesterase 1 | Spectrum Collection screen | – | concentration not given, with: substrate 20 µM | – | 77.4%
CC(C)c1noc2ncc(C(=O)c3ccccc3O)cc12 | Scn2a | ion current, whole-cell patch-clamp | – | 10 µM, rNav1.2 | – | 6.3%
O=C(NO)c1ccc(CN2CCCCc3ccccc32)c(F)c1 | DRD1 | radioligand binding, radioligand displacement | – | 10 µM | – | 22.6%
CCN1CCN(Cc2ccc(NC(=O)c3ccc(C)c(Oc4ccnc5[nH]ccc45)c3)cc2C(F)(F)F)CC1 | Diacylglycerol kinase alpha (DGKA, Homo sapiens, UniProt P23743) | – | A-375 | 5 µM | – | -11.9%
CCCN(O)N=Nc1ccc(S(=O)(=O)Nc2cc(C)on2)cc1 | α-glucosidase, rat intestine | enzyme activity | – | 20 µg/mL, with: 4-nitrophenyl α-D-glucopyranoside | – | 12.5 ± 1.05%
COc1ccc(F)cc1C(=O)NCc1ccc(-c2nn([C@@H](C)C(F)(F)F)c(N)c2C(N)=O)cc1 | STE20-related kinase adapter protein beta (Homo sapiens, UniProt Q9C0K7) | target engagement, competitive chemoproteomics | human PBMCs | 0.1 µM | – | 8.1%
CN(C(=O)n1cnc(-c2ccc[n+]([O-])c2)c1)C1CCCCC1 | Delta-type opioid receptor (OPRD1, Homo sapiens, UniProt P41143) | binding | – | 10 µM | – | 8.82%
Cc1nn(-c2nc3c(F)cc(F)cc3s2)c(O)c1C(c1ccccc1C(F)(F)F)c1c(C)nn(-c2nc3c(F)cc(F)cc3s2)c1O | Cyclic GMP-AMP synthase, catalytic domain; with DNA (CGAS, Homo sapiens, UniProt Q8N884) | cGAS phase separation, inhibitor | – | 0.391 µM | – | 27.6%
c1ccc(OC[C@@H]2CN(CCN3CCc4ccccc43)CCO2)cc1 | DRD1 | radioligand binding | – | concentration not given, with: [3H]SCH23390 | – | 83%
CN1CCN(c2cc(-c3ccncc3)c(-c3ccc4ccccc4c3)nn2)CC1 | C-X-C chemokine receptor type 2 (CXCR2, Homo sapiens, UniProt P25025) | antagonist, FLIPR | – | 10 µM | – | -0.7%
C[n+]1c2cc(N)ccc2cc2ccc(N)cc21.[Cl-] | Palmitoyl-protein thioesterase 1 | Spectrum Collection screen | – | concentration not given, with: substrate 20 µM | – | 70%
CC[C@@H]1[C@H](F)C(=O)N[C@@H]1COc1nccc2cc(C(N)=O)c(OC)cc12 | Serine/threonine-protein kinase VRK2 (VRK2, Homo sapiens, UniProt Q86Y07) | ATP-site probe binding, ActivX profiling | THP-1 cell lysate | 0.01 mM, Lys2 site | – | -16.6%

Structure (SMILES) | target | assay | system | setting | scale | inhibition
O=C(OC[C@H]1O[C@@H](OC(=O)c2cc(O)c(O)c(O)c2)[C@H](OC(=O)c2cc(O)c(O)c(O)c2)[C@@H](OC(=O)c2cc(O)c(O)c(O)c2)[C@@H]1OC(=O)c1cc(O)c(O)c(O)c1)c1cc(O)c(O)c(O)c1 | Protein disulfide-isomerase, a' domain (P4HB, Homo sapiens, UniProt P07237) | di-eosin-GSSG reductase activity | isolated a' domain | 20 µM | – | inhibited
CCCCCC/C=C1\C=C(C(F)(F)F)c2cc3c(cc21)OCCO3 | Protein disulfide-isomerase (P4HB, Homo sapiens, UniProt P07237) | enzyme activity, inhibitor, insulin reduction | – | concentration not given, biochemical | – | no effect
Cc1ccc(OC[C@H]2CN(CCN3CCc4ccccc43)CCO2)cn1 | DRD1 | radioligand binding | – | concentration not given, with: [3H]SCH23390 | – | 13.3%
Cn1cncc1[C@@](N)(c1ccc(Cl)cc1)c1ccc2c(c1)c(-c1cccc(Cl)c1)cc(=O)n2C | Protein farnesyltransferase (Homo sapiens, UniProt P49354+P49356) | enzyme activity, inhibitor, scintillation proximity | leukaemia patients, leukaemic blasts | 200 mg/m^2, 10 days, median | reference: pretreatment | 74%
Cc1cc2c(s1)Nc1ccccc1N=C2N1CCN(C)CC1 | Palmitoyl-protein thioesterase 1 | Spectrum Collection screen | – | concentration not given, with: substrate 20 µM | – | 61.1%
COc1ccc(C2=NC3(CCN(C(C)=O)CC3)NC(c3ccccc3O)C2)cc1 (stereo not shown) | Luciferin 4-monooxygenase | luciferase luminescence, inhibitor | cell-free | 50 µM, counter-screen | – | 10.1%
O=C(Nc1cccc2c(=O)cc(-c3nnn[nH]3)oc12)c1ccc(OCCCCc2ccccc2)cc1 | Volume-regulated anion channel subunit LRRC8C, part LRRC8A IL1 chimera (LRRC8C, Homo sapiens, UniProt Q8TDW0, E6A) | ion current, inhibitor, whole-cell patch clamp | HCT116 LRRC8 knockout, transfected | 3 µM, at +100 mV | – | 84.8%
Cc1ccc(N(O)N=Nc2ccc(S(=O)(=O)Nc3cc(C)on3)cc2)cc1 | α-glucosidase, rat intestine | enzyme activity | – | 120 µg/mL, with: 4-nitrophenyl α-D-glucopyranoside | – | 30 ± 0.791%
COc1ccc(NC(=O)N2CCc3c(C(=O)NC4CCN(C)CC4)cccc32)cc1 | Luciferin 4-monooxygenase | luciferase luminescence, inhibitor | cell-free | 50 µM, counter-screen | – | 45.3%
COc1ccc2c(c1)C(=O)N(CCCN1CCN(c3ccccc3OC)CC1)C2 | HTR1E | radioligand binding | – | concentration not given, with: [3H]5-HT | – | 6.8%
Cc1ccc(C(=O)Nc2ccc3ccccc3c2)o1 | Scn2a | ion current, inhibitor, whole-cell patch clamp | – | 10 µM | – | 4.56% and 0.77% and 3.26% and 6.3% and 6.67%
COc1ccc(C(=O)N2CCc3onc(-c4cccc(F)c4)c3C2)cc1 | Luciferin 4-monooxygenase | luciferase luminescence, inhibitor | cell-free | 50 µM, counter-screen | – | 51.5%
Cc1noc(NS(=O)(=O)c2ccc(N=NN(C)O)cc2)c1C | α-glucosidase, rat intestine | enzyme activity | – | 300 µg/mL, with: 4-nitrophenyl α-D-glucopyranoside | – | 57.5 ± 2.63%
CCc1nn(C)c2nc(-c3ccc(C(=O)O)cc3)nc(NCc3ccc(F)cc3)c12 | cGMP-inhibited 3',5'-cyclic phosphodiesterase 3B (PDE3B, Homo sapiens, UniProt Q13370) | enzyme activity | – | 10 µM, with: [3H]cAMP | – | -0.4%
Cc1ncccc1OC[C@H]1CN(CCN2CCc3ccccc32)CCO1 | HTR1E | radioligand binding | – | concentration not given, with: [3H]5-HT | – | -20%
COc1ccc(S(=O)(=O)N(CC(=O)NO)CC(C)C)cc1 | MMP2 | fluorometric | – | 1 ng/mL | – | 72%
CCN(O)N=Nc1ccc(S(=O)(=O)Nc2nccs2)cc1 | α-glucosidase, rat intestine | enzyme activity | – | 240 µg/mL, with: 4-nitrophenyl α-D-glucopyranoside | – | 55 ± 1.38%
O=C(CN1CCO[C@@H](COc2cccnc2)C1)N1CCc2ccccc21 | HTR1E | radioligand binding | – | concentration not given, with: [3H]5-HT | – | -5%
CCCOc1cc2c(cc1O)[C@@H]1Cc3c(Br)cc(O)c(OCC(F)(F)F)c3CN1CC2 | DRD1 | cAMP level, antagonist, TR-FRET | U2OS expressing human D1R | concentration not given, with: dopamine 10 nM | – | 91 ± 2%
Cc1cccc(N(O)N=Nc2ccc(S(=O)(=O)Nc3onc(C)c3C)cc2)c1 | α-glucosidase, rat intestine | enzyme activity | – | 300 µg/mL, with: 4-nitrophenyl α-D-glucopyranoside | – | 52.5 ± 0.09%
Cc1ccc2nc(O)c(CCC(=O)N3CCSCC3)cc2c1 | Luciferin 4-monooxygenase | luciferase luminescence, inhibitor | cell-free | 50 µM, counter-screen | – | 75.1%
O=c1c(O[C@@H]2O[C@H](CO)[C@H](O)[C@H](O)[C@H]2O)c(-c2ccc(O)c(O)c2)oc2cc(O)cc(O)c12 | Adhesin FmlH lectin domain | binding to desialylated mucin, ELISA competition | UPEC UTI89 | 100 µM | – | 14.4 ± 6.8%
Cc1nc(N2CCCC(NCCc3ccccc3F)CC2)nc2ccc(F)cc12 (stereo not shown) | Luciferin 4-monooxygenase | luciferase luminescence, inhibitor | cell-free | 50 µM, counter-screen | – | 31.8%
Clc1cccc(OC[C@H]2CN(CCN3CCc4ccccc43)CCO2)c1 | HTR1E | radioligand binding | – | concentration not given, with: [3H]5-HT | – | -15.8%
